# Measurements gathered from unrelated publications.
# Lines come from different studies, so protocols differ. Several values in a cell are separate wells, animals, samples, runs or records. ± gives the spread as reported.
# Complement C3: Complement C3 (Homo sapiens, UniProt P01024)
# lecA: PA-I galactophilic lectin (lecA, Pseudomonas aeruginosa, UniProt Q05097)
Structure (SMILES),target,test,test system,setting,Kd
CC(=O)N[C@H](C(=O)N1CCC[C@H]1C(=O)N1CCC[C@H]1C(=O)N1C[C@@H]2C[C@H]1C(=O)N[C@@H](C(C)C)C(=O)N1CCC[C@H]1C(=O)N1C[C@@H](C[C@H]1C(=O)N[C@@H](CCCNC(=N)N)C(=O)N[C@@H](CCCNC(=N)N)C(=O)N[C@@H](CCCNC(=N)N)C(N)=O)OCCCC=CCO2)C(C)C,"Growth factor receptor-bound protein 2, N-terminal SH3 domain (GRB2, Homo sapiens, UniProt P62993)","binding, tryptophan fluorescence",PBS,21 °C,18.6 µM and ~18 µM
O=C1c2sc(-c3ccc(N4CCC(CO)CC4)nc3F)nc2CCN1c1cccnc1,"TAR DNA-binding protein 43, aggregated (TARDBP, Homo sapiens, UniProt Q13148)",surface plasmon resonance,brain-derived aggregates,,0.08 ± 0.026 µM
CC(=O)N[C@@H](Cc1c[nH]c2ccccc12)C(=O)N[C@H]1CSSC[C@@H](C(=O)N[C@@H](Cc2c[nH]c3ccccc23)C(N)=O)NC(=O)[C@H](CCCNC(=N)N)NC(=O)[C@H](Cc2c[nH]cn2)NC(=O)[C@H](C)NC(=O)CNC(=O)[C@H](Cc2c[nH]c3ccccc23)NC(=O)[C@H](CC(=O)O)NC(=O)[C@H](CCC(N)=O)NC(=O)[C@H](Cc2c[nH]c3ccccc23)NC(=O)[C@H](C(C)C)NC1=O,Complement C3,"binding, SPR",,,0.38 µM
Cc1ccc(OCC(=O)N[C@@H](Cc2cn(CCNC(=O)c3ccc(S[C@@H]4O[C@H](CO)[C@H](O)[C@H](O)[C@H]4O)cc3)nn2)C(=O)NCCO)cc1,lecA,"binding, SPR",,,7.7 µM
C[n+]1cc2cc3cc(ccc31)NC(=O)CCCCC(=O)Nc1ccc3c(c1)cc(c[n+]3C)C(=O)Nc1ccc3[nH]cc(c3c1)CCNC2=O,cKIT2 G-quadruplex DNA,microscale thermophoresis,,,0.13 ± 0.01 µM
Cn1ccc(-c2cc(Cl)c(Cl)c3[nH]c4c(c23)CN(C(=O)CO)CC4)n1,"Cyclic GMP-AMP synthase (CGAS, Homo sapiens, UniProt Q8N884)",surface plasmon resonance,,apo protein,no binding
Nc1ncnc2c1ncn2[C@@H]1O[C@H](COP(=O)(O)OP(=O)(O)OP(=O)(O)O)[C@@H](O)[C@H]1O,"dnaA (Escherichia coli, UniProt P03004)","binding, radiometric",,,0.1 µM
O=C(Nc1cc(Cl)ccc1O)c1nn2c(C(F)(F)F)cc(-c3cc(Br)cs3)nc2c1Br,"Hepatitis A virus cellular receptor 2 (Homo sapiens, UniProt Q8TDQ0)","binding, microscale thermophoresis",,,0.26 µM
CNCCCC[C@H](NC(=O)[C@@H](NC(=O)[C@H](CCCNC(=N)N)NC(=O)[C@H](C)N)[C@@H](C)O)C(=O)N[C@@H](CCC(N)=O)C(=O)N[C@H](C(=O)N[C@@H](C)C(=O)N[C@@H](CCCNC(=N)N)C(=O)N[C@@H](CCCCN)C(=O)N[C@@H](CO)C(=O)N[C@H](C(=O)NCC(=O)NCC(=O)N[C@@H](CCCCN)C(=O)N[C@@H](C)C(=O)O)[C@@H](C)O)[C@@H](C)O,"Histone-lysine N-methyltransferase 2A, PHD3-bromodomain cassette (KMT2A, Homo sapiens, UniProt Q03164, del1666-1702)","binding, isothermal titration calorimetry",,"pH 7.5, 25 °C, coexpressed protein complex, with: H3K4me peptide",53 µM
O=C(COc1ccccc1)N[C@@H](Cc1cn(CCNC(=O)c2ccc(S[C@@H]3O[C@H](CO)[C@H](O)[C@H](O)[C@H]3O)cc2)nn1)C(=O)NCCO,lecA,"binding, SPR",,,10.3 µM
CCOC(=O)C1=CN([C@@H]2O[C@H](CO)[C@@H](O)[C@H]2O)C=CC1,"NAD-dependent protein deacylase sirtuin-5, mitochondrial (SIRT5, Homo sapiens, UniProt Q9NXA8)","binding, ITC",,,8.3 µM
CNCCCC[C@H](NC(=O)[C@H](CCCNC(=N)N)NC(=O)[C@H](Cc1c[nH]cn1)NC(=O)[C@@H](N)CCCNC(=N)N)C(=O)N[C@H](C(=O)N[C@@H](CC(C)C)C(=O)N[C@@H](CCCNC(=N)N)C(=O)N[C@@H](CC(=O)O)C(=O)N[C@@H](CC(N)=O)C(=O)O)C(C)C,"Lethal(3)malignant brain tumor-like protein 1 (Homo sapiens, UniProt Q9Y468)",,,,24 ± 1 µM
COc1cc(C(=O)O)c2c(c1)C(C)=CC(C)(C)N2,"E3 ubiquitin-protein ligase CBL-C (Homo sapiens, UniProt Q9ULV8)","binding, NMR",,,720 µM
O=C(Cc1ccccc1O)N[C@@H](Cc1cn(CCNC(=O)c2ccc(S[C@@H]3O[C@H](CO)[C@H](O)[C@H](O)[C@H]3O)cc2)nn1)C(=O)NCCO,lecA,"binding, SPR",,,9.8 µM
OC(Cc1cc(-c2ccc(C(O)C(F)(F)F)s2)sc1-c1ccc(-c2sc(-c3ccc(C(O)C(F)(F)F)s3)cc2CC(O)C(F)(F)F)s1)C(F)(F)F (stereo not shown),"Amyloid-beta precursor protein, Aβ40 aggregates (APP, Homo sapiens, UniProt P05067)",fluorescence,,Aβ aggregated 90 min,7.58 ± 2.47 µM
CC(C)C[C@H](NC(=O)[C@H](CCCNC(=N)N)NC(=O)[C@@H](NC(=O)[C@H](CC(=O)O)NC(=O)[C@@H](N)CSC1CC(=O)N(c2ccc3c(c2)C(=O)OC32c3ccc(O)cc3Oc3cc(O)ccc32)C1=O)[C@@H](C)O)C(=O)O (stereo partly shown),"Na(+)/H(+) exchange regulatory cofactor NHE-RF1, PDZ1 domain (NHERF1, Homo sapiens, UniProt O14745)","binding to PDZ1 domain, fluorescence polarization",,24 °C,0.949 ± 0.089 µM
CC(C)=CCC[C@](C)(O)[C@H]1CC[C@]2(C)[C@@H]1[C@H](O)C[C@@H]1[C@@]3(C)CC[C@H](O)C(C)(C)[C@@H]3CC[C@]12C,"14-3-3 protein zeta/delta (YWHAZ, Homo sapiens, UniProt P63104)",isothermal titration calorimetry,,,3.1 ± 2e-07 µM
CNc1ccccc1C(=O)O[C@H]1C[C@H](n2cnc3c(N)ncnc32)O[C@@H]1COP(=O)(O)OP(=O)(O)O,"Unconventional myosin-Va (Gallus gallus, UniProt Q02440, D297C/G292C/I296C/S293C/V295G)","binding, ligand, stopped-flow FRET",,"15 °C, with: 2 mM MgCl2",0.92 ± 0.16 µM
CC[C@H](C)[C@@H]1NC(=O)[C@@H]2CCCN2C(=O)[C@H](Cc2c[nH]c3ccccc23)NC(=O)[C@H](CO)NC(=O)[C@H](Cc2c[nH]c3ccccc23)NC(=O)[C@H](CC(N)=O)NC(=O)[C@H](CCCCN)NC(=O)[C@H](CCSC)NC(=O)[C@@H]2CSCCC(=O)N3CN(CN(C3)C(=O)CCSC[C@H](NC(=O)[C@H](C)N)C(=O)N3CCC[C@H]3C(=O)N[C@@H](Cc3ccccc3)C(=O)NCC(=O)N2)C(=O)CCSC[C@@H](C(=O)N[C@H](C(=O)N[C@@H](CC(N)=O)C(=O)N[C@@H](CCCCN)C(=O)N(C)CC(=O)N(C)CC(=O)N(C)CC(=O)N(C)CC(=O)N(C)CC(=O)N(C)CC(=O)N[C@@H](CCCCNC(=O)c2ccc(C(=O)O)c(-c3c4ccc(=O)cc-4oc4cc(O)ccc34)c2)C(N)=O)[C@@H](C)O)NC(=O)[C@H](Cc2c[nH]c3ccccc23)NC1=O,Nectin-4 extracellular domain (cynomolgus monkey),"binding, fluorescence polarization",,,0.0492 µM
CC(=O)N[C@@H](Cc1c[nH]c2ccccc12)C(=O)N[C@H]1CSSC[C@@H](C(=O)N[C@H](C(N)=O)[C@@H](C)O)NC(=O)[C@H](CCCNC(=N)N)NC(=O)[C@H](Cc2c[nH]cn2)NC(=O)[C@H](C)NC(=O)CNC(=O)[C@H](Cc2c[nH]c3ccccc23)NC(=O)[C@H](CC(=O)O)NC(=O)[C@H](CCC(N)=O)NC(=O)[C@H](Cc2c[nH]c3ccccc23)NC(=O)[C@H](C(C)C)NC1=O,Complement C3,surface plasmon resonance,,"25 °C, two-state reaction model",0.5 µM
Cc1ccc2c(c1Br)C(O)(CC(=O)c1ccc3c(c1)OCO3)C(=O)N2 (stereo not shown),"Uncharacterized protein (Trypanosoma brucei brucei, UniProt Q386Q8)","binding, surface plasmon resonance",Trypanosoma brucei,with: GlcNAc-1-P 100 µM,2.35 ± 0.03 µM
CC[C@H](C)[C@H](NC(=O)[C@H](CCCNC(=N)N)NC(=O)NC[C@H](CCC(N)=O)NC(=O)NC[C@H](CC(C)C)NC(=O)NC[C@H](CCCNC(=N)N)NC(=O)NC[C@H](Cc1ccc2ccccc2c1)NC(=O)[C@H](CCCNC(=N)N)NC(=O)[C@H](CCC(=O)O)NC(C)=O)C(=O)N[C@@H](C)C(N)=O,"Histone chaperone ASF1A (Homo sapiens, UniProt Q9Y294)","binding, ITC",,pH 7.5,6.6 µM
OC[C@H]1O[C@@H](Oc2ccc(-c3cn([C@H]4[C@H](O)[C@@H](O)[C@H](c5cn([C@H]6[C@H](O)[C@@H](O)[C@H](n7cc(-c8ccc(O[C@@H]9O[C@H](CO)[C@H](O)[C@H](O)[C@H]9O)cc8)nn7)O[C@@H]6CO)nn5)O[C@@H]4CO)nn3)cc2)[C@H](O)[C@@H](O)[C@H]1O,lecA,"binding, ITC",,pH 7.5,0.087 µM
CC(=O)[C@@]1(O)CC[C@H]2[C@@H]3CCC4=CC(=O)CC[C@]4(C)[C@H]3CC[C@@]21C,anti-cortisol Fab fragment 17 (mouse),"binding, surface plasmon resonance",,,0.08 µM
O=P(O)(O)O[C@@H]1[C@@H](O)[C@H](O)[C@H](O)[C@H](O)[C@H]1OP(=O)(O)O,"Inositol 1,4,5-trisphosphate-gated calcium channel ITPR1, N-terminal region (Itpr1, Rattus norvegicus, UniProt P29994, del318-332/R568Q)",[3H]IP3 competition binding,N-terminal fragment R568Q,Tris-EDTA medium,0.974 µM
CC(C)C[C@H](NC(=O)[C@@H](NC(=O)[C@H](CCCCN(C)C)NC(=O)[C@H](CCCNC(=N)N)NC(=O)[C@H](Cc1c[nH]cn1)NC(=O)[C@H](CCCNC(=N)N)NC(=O)[C@H](CCCCN)NC(=O)[C@H](C)N)C(C)C)C(=O)N[C@@H](CCCNC(=N)N)C(=O)O,"TP53-binding protein 1, tandem tudor domain (Homo sapiens, UniProt Q12888)","binding, tryptophan fluorescence",,tandem Tudor domain,1.3 µM
Nc1ncnc2c1ncn2[C@@H]1O[C@@H]2COP(=O)(O)O[C@H]3[C@@H](O)[C@H](n4cnc5c(N)ncnc54)O[C@@H]3COP(=O)(O)O[C@H]2[C@H]1O,"darB (Bacillus subtilis, UniProt O31698)","binding, ITC",,,0.027 µM
C=C1C(=O)O[C@@H]2[C@H]3C(CO)=CC(=O)C3=C(C)C[C@H](OC(=O)Cc3ccc(O)cc3)[C@@H]12,"Alpha-glucosidase MAL12 (MAL12, Saccharomyces cerevisiae S288c, UniProt P53341)","binding, fluorescence quenching",,"30 min, 310 K",133 µM

# For quick reference, copied from above:
Structure (SMILES),target,test,test system,setting,Kd
Cc1ccc2c(c1Br)C(O)(CC(=O)c1ccc3c(c1)OCO3)C(=O)N2 (stereo not shown),"Uncharacterized protein (Trypanosoma brucei brucei, UniProt Q386Q8)","binding, surface plasmon resonance",Trypanosoma brucei,with: GlcNAc-1-P 100 µM,2.35 ± 0.03 µM
CC[C@H](C)[C@H](NC(=O)[C@H](CCCNC(=N)N)NC(=O)NC[C@H](CCC(N)=O)NC(=O)NC[C@H](CC(C)C)NC(=O)NC[C@H](CCCNC(=N)N)NC(=O)NC[C@H](Cc1ccc2ccccc2c1)NC(=O)[C@H](CCCNC(=N)N)NC(=O)[C@H](CCC(=O)O)NC(C)=O)C(=O)N[C@@H](C)C(N)=O,"Histone chaperone ASF1A (Homo sapiens, UniProt Q9Y294)","binding, ITC",,pH 7.5,6.6 µM
OC[C@H]1O[C@@H](Oc2ccc(-c3cn([C@H]4[C@H](O)[C@@H](O)[C@H](c5cn([C@H]6[C@H](O)[C@@H](O)[C@H](n7cc(-c8ccc(O[C@@H]9O[C@H](CO)[C@H](O)[C@H](O)[C@H]9O)cc8)nn7)O[C@@H]6CO)nn5)O[C@@H]4CO)nn3)cc2)[C@H](O)[C@@H](O)[C@H]1O,lecA,"binding, ITC",,pH 7.5,0.087 µM
